# Published values gathered from unrelated publications.
# Numbered parts are unrelated; each lists some results of a single study.

# Series 1
# Target: RNA binding protein fox-1 homolog 2, RRM domain, GST-SBP tag (RBFOX2, Homo sapiens, UniProt O43251-10, residues 100-194)
# Method: RNA Bind-n-Seq
# Molecule type: RNA
# Matrix: in vitro
# Concentration: 365 nM
# Setting: natural RNA segment, single round, ends assumed
# Relative to: no-protein control
# Reading: higher = stronger binding
# Constant ends, left off below: GGGAGUUCUACAGUCCGACGAUC … UGGAAUUCUCGGGUGCCAA
# Residues (chain): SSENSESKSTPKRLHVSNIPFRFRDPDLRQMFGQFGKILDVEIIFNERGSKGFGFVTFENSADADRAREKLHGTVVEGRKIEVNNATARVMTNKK
Oligonucleotide,RBNS enrichment (R)
CAUCCUGUGACUGCCAGGCAGAAAGGACAGGGCCCAGGUCAGCCUCAGUCUGCUGUGCCUCCAGACUGCAGAGCUCUCAGAACCCAGAACAGAGACGAAAAGGCUACCUC,0.623
GGCCACGUGCUUCUAUGUGGUGUUUGACUCUGUACAAAUUCUAGUCCCAAAGAUCAAGUUGUCUGAAGGAGCCAAAGUGUGAAUGUGGGUGUCGGCUGCGGCAUUAAAUU,1.38
GCAGCUUUUUUCCUCAAAAGUAACCUGUUCCUCUUUGGAAUAGCACAUUUUAGGGGCAUGGUUAAUACCUGAGAUUUUUACUCAGUAAAUCCUGAUGGUUACUGUGUGUA,0.243
UGUGUAAAGUGCUAGGAAAUUUCCAAUUUGAAAUUUUGCUUUUUCUGGCAUUGGCAAAAAACCAGUAGAAGUGAAUUGUUAGCUGAUGGCCAGGGGGUGUGAUAACAAAU,1.31
UCCUGAAACCCCUCUUGCCUCUCUUCCACGGAAGAGGGCCUGGGCCCCGUGGAGCCUCAGUGCCCGUUUGGCCUGCUGCUCUCGCUGACAAUAAAGAGCCCUUGCGUUGC,0.776
GAUAUGCCUUGUAGCCAAAGUAUUAAAGGCUGAUGAACAUAGACAAGGGAAAUGCAUUUCUUAGAAAUCCGUGAACCCUCAGUUGUAUGCUUUCAGUACUCGUGUUAAUA,0.361
GGAAAAUGAAGCUCGGGCUGGUUAACUGCUUGCUCAGCGUCCCAUGGCCUAGCCGCCCGUGACUCUCACACUGUCUCCUGCAUGACGGGUGGCGCCUCCCGCAGCUUCCC,11.6
UACCCCACGCGUGUCUGUCCCCCUCGUUCUGUAGCGUUUGUACAUAAUAAAACAAUGGAGUGGAGACGCUCAGGCUCGCGUGUAAUCCGGGAAGGGGGAGCUCAAGCGGA,0.351
CAUUCUUGUAUUUGACUAUUUAAUCCUUUCUACUUGUCGCUAAAUAUAAUUGUUUCAGUCCUAUGGCAUGGUGAUAGCAUAUGUGUUCAGGUUUAUAGCUGUUGUGUUUA,0.669
CACAGACCUUCGAUGGCGUUUGAGUCCAACACCUUCCAAGAACAACAAAACCAUAUCAGUGUACUGUAGCCCCUUAAUUUAAGCUUUCUAGAAAGCUUUGGAAGUUUUUG,0.477
UUAGUUACAUGCACAGAUGCAAUAUUUUCUUCAAAAAUAUAACUCUGUACAAACUUUGGGCCCGAUUCAUAAGAAAGAAGUUUGCUAUUAACACGGGAUUUUAAAAAAUA,0.389
ACGAGCUGUCAAAGCGUAGCCAGCCAGGGGCAGGCCCCUGCUGCCCGGAAGCUCCCGCGUGCAUCCCGGGAUGACCAGACUCCCGGACUCCUCAGGCAGUGCCCUUCCUC,0.184

# Series 2
# Target: Histone acetyltransferase KAT6A, both winged helices, GST fusion (KAT6A, Homo sapiens, UniProt Q92794, residues 1-181)
# Method: protein binding microarray
# Molecule type: double-stranded DNA, one strand shown
# Matrix: in vitro
# Concentration: not given
# Setting: 8-mer, flanks averaged, mean of 2 arrays, mostly near background
# Relative to: not given
# Reading: higher = stronger binding
# Residues (chain): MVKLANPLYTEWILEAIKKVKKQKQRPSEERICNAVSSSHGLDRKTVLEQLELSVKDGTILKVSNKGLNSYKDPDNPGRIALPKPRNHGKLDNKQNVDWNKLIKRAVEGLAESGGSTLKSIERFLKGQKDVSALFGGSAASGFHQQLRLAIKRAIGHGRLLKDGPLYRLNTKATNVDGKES
Oligonucleotide,E-score
AATCCACA,-0.125
GCCGCGAC,0.253
GAACGACC,-0.0486
AGATCGAG,-0.154
AAGTCGTC,-0.0616
CCGCATAC,0.143
CATCCGTC,0.162
CCTCACAC,-0.137
CGAGGGCC,0.00911
CGGCATCC,0.228
ACTCCTAG,-0.136
ATTCATCC,-0.146
CATGCGTC,0.128
CCTGTTGA,-0.144
TGAGACAA,-0.179
CATACACA,-0.121
TGGGAAAA,-0.128
AACTGGGC,-0.192
AAGTCTTC,-0.21
CCTGATGA,-0.0686
ACCAACAT,-0.000685
GTGTCACA,0.0973

# Series 3
# Target: Centromere-binding protein 1, full length, N-terminal tag (CBF1, Saccharomyces cerevisiae, UniProt P17106, residues 1-351)
# Chain of UniProt P17106 (whole entry, looked up): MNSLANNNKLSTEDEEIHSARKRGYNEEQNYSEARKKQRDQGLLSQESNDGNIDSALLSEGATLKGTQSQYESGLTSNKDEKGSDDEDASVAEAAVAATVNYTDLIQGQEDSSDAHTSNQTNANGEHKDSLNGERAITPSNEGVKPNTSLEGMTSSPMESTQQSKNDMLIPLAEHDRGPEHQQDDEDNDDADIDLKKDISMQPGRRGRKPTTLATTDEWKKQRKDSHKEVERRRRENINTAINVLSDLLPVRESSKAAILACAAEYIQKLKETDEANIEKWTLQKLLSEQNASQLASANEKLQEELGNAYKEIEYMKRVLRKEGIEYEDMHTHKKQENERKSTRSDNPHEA
# Method: protein-binding microarray
# Molecule type: double-stranded DNA, one strand shown
# Matrix: in vitro
# Concentration: 0.8 µM
# Setting: whole 60-bp probe, no competitor
# Reading: higher = stronger binding
# Constant ends, left off below: … GTCTTGATTCGCTTGACGCTGCTG
Oligonucleotide,fluorescence intensity [a.u.]
CCTAACTACTATACAGACATGATATAGCTTCGTACA,524
CTATGCTTGTGAGTGCACGTGTATACGCTATGCTTC,5470
CTATTTTTTCGACAACAGGTGAGTGAAATAAAATTC,674
CTAGTTCATAAAACACACATGAAACAACCTTATTTC,516
TGTACGAAGCTATTCCACATGACTATAGTAGTTAGG,813
CTATTCAGCTGTCACCACCAGTTTTAGGCCCTATTC,507
CTAATTGGATTCGATCACGATGTATTCAATGAGTTC,725
GAATCTTTCACTTATCTGATGTTCCTGATTGCCTAG,545
CTATGAAATAACATACACACGTGTAAGAATATATTC,5140
GAATGCGTCACTGCCCACGAGCACATGGGGTGATAG,1060
CCTAACTACTATATCGGTCAGGTATAGCTTCGTACA,523
CTATACCCAACATGTCACGTTTCACGAATTCTCTTC,2500
CTAGAAGATTACATAGTGATGATGATCGTGACATTC,640
GAATTCTTCCAGCCTCATGACCTCAATAAACTTTAG,889
CTATGTTCTTGTAGCTACACCACGATTGAGTGTTTC,511
GAACTGGGGTAATCACATGTGATATCTAAGAGATAG,4020
GAATGGGTTTTCAGGCACGTAATTTTCAAAAGATAG,631
GAACACTGTTTATGTTGTGTGAACTTGTTGTAATAG,540
CTAACAATGGTACATCAGGTTTAGTCTTTGCCATTC,534

# Series 4
# Target: FOXO3, forkhead domain (mouse, UniProt Q9WVH4, residues 31-263)
# Chain of UniProt Q9WVH4 (31-263, looked up): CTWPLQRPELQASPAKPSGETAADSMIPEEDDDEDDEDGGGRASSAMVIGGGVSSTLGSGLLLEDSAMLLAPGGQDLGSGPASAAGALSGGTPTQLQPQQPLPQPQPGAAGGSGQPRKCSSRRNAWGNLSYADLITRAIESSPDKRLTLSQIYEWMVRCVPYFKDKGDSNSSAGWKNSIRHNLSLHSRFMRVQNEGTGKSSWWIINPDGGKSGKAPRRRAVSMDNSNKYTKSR
# Method: protein-binding microarray
# Molecule type: hairpin DNA
# Matrix: in vitro
# Concentration: not given
# Setting: whole hairpin DNA, median over replicate spots
# Relative to: not given
# Reading: higher = stronger binding
Oligonucleotide,median fluorescence [a.u.]
GAGGCCATGCAACCAACGCCTCCTGGCGTTGGTTGCATGGCCTCACACTC,4580
GAGGCCAAGTAAACAACGCCTCCTGGCGTTGTTTACTTGGCCTCACACTC,6190
GAGGCCATGGAAACAACGCCTCCTGGCGTTGTTTCCATGGCCTCACACTC (5mC at 35),4340
GAGGCCGTGCAAACAACGCCTCCTGGCGTTGTTTGCACGGCCTCACACTC (5mC at 38),5210
GAGGCCACGTAACCAACGCCTCCTGGCGTTGGTTACGTGGCCTCACACTC (5mC at 36),4390
GAGGCCGTGTAACCAACGCCTCCTGGCGTTGGTTACACGGCCTCACACTC (5mC at 38),4200
GAGGCCACGCAAACAACGCCTCCTGGCGTTGTTTGCGTGGCCTCACACTC (5mC at 36),5360
GAGGCCATGCAAACACGGCCTCCTGGCCGTGTTTGCATGGCCTCACACTC,4990
GAGGCCATGCAACGAACGCCTCCTGGCGTTCGTTGCATGGCCTCACACTC (5mC at 13),4470
GAGGCCATGCAAACCGCGCCTCCTGGCGCGGTTTGCATGGCCTCACACTC (5mC at 15),4780
GAGGCCATGCAAACACGGCCTCCTGGCCGTGTTTGCATGGCCTCACACTC (5mC at 16),4600
GAGGCCATGTAACGAACGCCTCCTGGCGTTCGTTACATGGCCTCACACTC (5mC at 31),3990
GAGGCCATCGAACCAACGCCTCCTGGCGTTGGTTCGATGGCCTCACACTC (5mC at 9),4270
GAGGCCATGTAACCAACGCCTCCTGGCGTTGGTTACATGGCCTCACACTC (5mC at 17),4120
GAGGCCATGTACGCAACGCCTCCTGGCGTTGCGTACATGGCCTCACACTC (5mC at 32),4740
GAGGCCATGCCAACAACGCCTCCTGGCGTTGTTGGCATGGCCTCACACTC (5mC at 11),4560

# Series 5
# Target: RING finger protein unkempt homolog, zinc fingers 1-6, GST-SBP tag (UNK, Homo sapiens, UniProt Q9C0B0, residues 30-357)
# Chain of UniProt Q9C0B0 (30-357, looked up): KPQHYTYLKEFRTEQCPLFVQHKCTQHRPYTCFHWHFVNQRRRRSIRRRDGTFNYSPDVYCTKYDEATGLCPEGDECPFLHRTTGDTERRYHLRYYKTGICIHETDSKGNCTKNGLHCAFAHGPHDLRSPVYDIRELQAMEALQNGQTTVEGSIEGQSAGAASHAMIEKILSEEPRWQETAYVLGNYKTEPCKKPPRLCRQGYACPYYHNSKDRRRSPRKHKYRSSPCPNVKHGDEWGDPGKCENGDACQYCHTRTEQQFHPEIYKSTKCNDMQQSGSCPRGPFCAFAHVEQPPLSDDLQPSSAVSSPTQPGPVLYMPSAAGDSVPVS
# Method: RNA Bind-n-Seq
# Molecule type: RNA
# Matrix: in vitro
# Concentration: not given
# Setting: RNA with constant flanks, human-mouse chimeric sites, ends assumed
# Relative to: input RNA pool
# Reading: higher = stronger binding
# Constant ends, left off below: GGGAGUUCUACAGUCCGACGAUC … CAACAGAGGAUUGAGCAUCA
Oligonucleotide,bound/input enrichment
UUCCCAACCUCCCGCCUCACCCCACCCCCGCUUUUUGAAAGUGUGUUGGCGUUUCUUUUCCUUCCCCAUACAAAGUGAUUACAGUUUCCCCCGCAAGGGUCUAUCGAAGGGCUUGACGGA,0.622 ratio
CUCGGCACUGGUACCCUUUACAUCGCGGAGAGCCGCCUGUCCUGGUUAGAUGGUUCGGGAUUAGGAUUCUCACUGGAAUACCCCACCAUUAGUUUACAUGCAUUAUCCAGGGAUCCAAAC,3.17 ratio
CACGUGUCUGCAGUACUUGAUGUGGACUACUCUCCCACUGGGAAGGAGUUUGUGUCUGCCAGCUUUGAUAAGUCUAUUAGAAUCUUUCCUGUAGACAAGAGCCGAAGCAGGGAAGUGUAU,0.266 ratio
CCCCAAUACCAUUUGCAGGUCUGGAACUGCACUCUCUUUAAAGUUUUACAUGUAUACAUUUUAGGGCUGUAGAUUUACUUUCCUAUUUUUGUUUUUCAUUGCUGACUUUUGAGCACAGAA,0.861 ratio
GGAAGUACAAUGAUGGAAAUAGAUGGCGACAAAGGCAAGCAGGGCGGGCCCACCUACUACAUAGACACUAAUGCUCUCCGCGUGCCCAGGGAGAACAUGGAGGCCAUCUCACCACUCAAG,0.709 ratio
ACUCUUGACUCUUUCCAUCCUCUUCCUUUCCCUCUUGAUAUUCAAGGCCAUGAAUCCCAAAAUAACAAUCUAUCUUACUAGCACCCAAACAGAGGUGGAAUAAAUCCAAACUGACAACUC,1.98 ratio
AAAUUUCCCCUCCUGAGACCUCCUCCGAAGUUGGAGUCUCUUACAGAUGCCUCAUCCCCUGUUAGCGUUUUAGUUUGGACCACCCAGCCUUGGACGAUUCCCGCCAACCAGGCAAUUUGC,1.14 ratio
AUGGAACAUUUCGAUGCAUCACUUAGUACCUAUUUCAAGGCCUUCCUGGGCCCCCGAGAUACAAGAGUAAAAGGAUGGUUCCUCCUGGACAAUUACAUCCCUACGUUUGUCUGUUCUGUU,0.275 ratio
AAAGAGAAACUAAAGCAACUAAUAGAGAAGAGGAUUGGCAAAGAGAAAUUUCAUAGAAAACUAGGAUUUAUUAGCAAACAUGAGUUAGUAUUCCAGACGUCUCAGAAACCCCAGCCAAAC,7.66 ratio
UUGCUACUGACUCCCUGGGUCAAGUUCCUGUGGGAGUCAUACAGGCAGUGUUUGGACCUUCUUCGAAACAAUUCUAGAGUAGAGCGCCUUUACCAUGAUAUCGCCCAACAAGCUUUCAAA,0.14 ratio
UAAAUUAGGGCUGCCGUUUUCUGUUUCUCCCUGGGCUGCGGAAAGCCAGAAGAUUUUAUCUAGCUUAAACCAGGCUGCUGGUGUUCCCUCUUUUUUUCCACGAGGGUGUUUUUGGCUGCA,0.775 ratio
